Results collected from several papers.
A part holds a random share of what one study measured. Positions count from the first letter of the parent shown.

Study 1 — method: DHFR PCA, deep sequencing; sample: yeast; together with: (+)-ABA 4.8 µM; baseline: wild-type fitted maximum; direction: higher = stronger binding; measurement: relative binding score
Target: ABI1, truncated, D143A, DHFR fusion (Arabidopsis thaliana)
Setting: methotrexate growth selection, single substitutions
Starting sequence: PYL1, truncated, DHFR fusion (Arabidopsis thaliana); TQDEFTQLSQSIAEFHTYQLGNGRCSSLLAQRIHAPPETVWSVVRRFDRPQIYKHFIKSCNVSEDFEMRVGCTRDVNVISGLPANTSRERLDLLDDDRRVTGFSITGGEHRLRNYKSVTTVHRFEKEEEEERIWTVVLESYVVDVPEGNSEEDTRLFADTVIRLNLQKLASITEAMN
G71F: 4%
R123E: 89.5%
D96M: -14%
V76S: 2.84%
T173D: 1.92%
S171V: 70.9%
A170M: 31.4%
R163I: 5.81%
R24H: 45.7%
E128F: 62.1%
C60E: 8.28%
F47L: -7.95%
T39P: 3.27%
F56I: -10.4%
H110P: 35%
M68A: 36.8%

Study 2 — method: aptamer microarray, sandwich; form: DNA with 2'F-ANA; sample: in vitro; tested at: 200 nM; together with: Cy3 exosite-II aptamer, 400 nM; direction: higher = stronger binding; measurement: mean fluorescence intensity; oligonucleotide: GGTTGGTGTGGTTGG
Target: Prothrombin, mature alpha-thrombin (F2, Homo sapiens, UniProt P00734)
Setting: whole 15-mer aptamer, many near background
2'F-ANA at 1 3 4 6 10 11 15: 58.9 a.u.
2'F-ANA at 1 2 4 7 9 11 12 13 15: 197 a.u.
2'F-ANA at 1 7 8: 272 a.u.
2'F-ANA at 4 5 6 7 9 10 13 15: 48.6 a.u.
2'F-ANA at 2 3 4 6 8 9 10 13: 204 a.u.
2'F-ANA at 2 3 4 6 8 9 14 15: 224 a.u.
2'F-ANA at 1 2 4 5 6 7 8 10 12 13 14 15: 51.2 a.u.
2'F-ANA at 2 5 6 7 8 12 14: 51.7 a.u.
2'F-ANA at 2 6 7 8 10 11 12 13: 146 a.u.
2'F-ANA at 1 2 4 5 8 9 12 15: 105 a.u.
2'F-ANA at 2 4 5 6 8 9 15: 67.9 a.u.
2'F-ANA at 4 5 12 14: 43.2 a.u.
2'F-ANA at 1 2 8 9 10 12 15: 72.7 a.u.
2'F-ANA at 1 3 5 6 9 15: 60.6 a.u.
2'F-ANA at 2 4 5 6 8 10 11 14 15: 48.9 a.u.
2'F-ANA at 2 3 4 6 7 8 9 10 11 12 13 15: 177 a.u.
2'F-ANA at 7 9 11 13 15: 354 a.u.
2'F-ANA at 1 2 5 7 9 14 15: 48.3 a.u.
2'F-ANA at 3 4 6 7 8 12 14 15: 333 a.u.
2'F-ANA at 4 5 7 9: 75.4 a.u.
2'F-ANA at 2 3 10 11 15: 379 a.u.
2'F-ANA at 3 5 8 10 12 15: 63.3 a.u.
2'F-ANA at 1 3 4 7 8 11 12 14 15: 101 a.u.
2'F-ANA at 1 2 3 5 6 8 9 10 11 13 15: 46.9 a.u.
2'F-ANA at 3 4 7 13 15: 646 a.u.

Study 3 — target: CCNB1, cyclin fold, Cln2 fusion (human); method: yeast growth competition, sequencing; sample: yeast; setting: strong parent motif; baseline: not given; direction: higher = stronger binding; measurement: normalised enrichment score
Starting sequence: E2F1 docking peptide (human); PPVKRRLDLETDH; partner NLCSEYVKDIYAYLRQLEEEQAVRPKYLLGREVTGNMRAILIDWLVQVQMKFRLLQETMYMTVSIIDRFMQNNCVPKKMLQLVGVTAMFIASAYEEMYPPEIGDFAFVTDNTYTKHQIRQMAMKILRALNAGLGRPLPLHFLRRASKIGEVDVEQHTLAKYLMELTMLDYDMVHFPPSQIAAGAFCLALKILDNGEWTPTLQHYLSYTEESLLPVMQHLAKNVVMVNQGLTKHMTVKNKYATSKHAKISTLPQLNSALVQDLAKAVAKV
PPVKRRLDLMTDH [E10M]: 0.767
PPVKRRLWLETDH [D8W]: 0.635
PPTKRRLDLETDH [V3T]: 0.284
PKVKRRLDLETDH [P2K]: 0.443
PPVKGRLDLETDH [R5G]: 0.895
PPVKRRLDLEKDH [T11K]: 0.533
PPVDRRLDLETDH [K4D]: 1.04
PPVKRRLILETDH [D8I]: 1.71
PPVKRRVDLETDH [L7V]: 0.0615
PPVKRLLDLETDH [R6L]: 0.372
PPVKFRLDLETDH [R5F]: 0.399
PPVKRNLDLETDH [R6N]: 0.773
PPVKLRLDLETDH [R5L]: 0.359
PFVKRRLDLETDH [P2F]: 0.926
PPVKRRLDLEPDH [T11P]: 2.76
PPVKRRLDLYTDH [E10Y]: 0.316
PPVKRFLDLETDH [R6F]: -0.189
PPVKRRLRLETDH [D8R]: 0.822
PPVKRRLDLETNH [D12N]: 0.767
PPVLRRLDLETDH [K4L]: 0.811
FPVKRRLDLETDH [P1F]: 1.8

Study 4 — target: BATF3, bZIP domain (human); method: DHFR protein complementation; sample: yeast; baseline: wild-type JUN-FOS pair; direction: higher = stronger binding; measurement: binding fitness
Setting: single substitutions, most at no-binding floor
Starting sequence: JUN, bZIP domain (human); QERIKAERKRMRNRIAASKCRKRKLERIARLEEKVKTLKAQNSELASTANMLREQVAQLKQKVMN; partner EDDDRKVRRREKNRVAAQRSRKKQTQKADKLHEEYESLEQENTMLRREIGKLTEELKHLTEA
R30M: 0.198 natural log
K39V: 0.144 natural log
V56F: -0.0413 natural log
M51S: 0.254 natural log
M51G: 0.235 natural log
R30I: 0.102 natural log
E44S: 0.129 natural log
A57Q: 0.172 natural log
R53N: -0.047 natural log
M51R: 0.224 natural log
K36G: 0.226 natural log
S43R: 0.286 natural log
L52F: -0.133 natural log
K36W: 0.146 natural log
L45P: -0.993 natural log
T48R: 0.226 natural log
V56L: 0.113 natural log
L45R: -0.515 natural log
K34N: 0.214 natural log
V56N: -0.21 natural log

Study 5 — method: RNA Bind-n-Seq; form: RNA; sample: in vitro; tested at: 365 nM; baseline: no-protein control; direction: higher = stronger binding; measurement: RBNS enrichment (R)
Target: RNA binding protein fox-1 homolog 2, RRM domain, GST-SBP tag (RBFOX2, Homo sapiens, UniProt O43251-10, residues 100-194)
Setting: natural RNA segment, single round, ends assumed
Shared flanks, not repeated: GGGAGUUCUACAGUCCGACGAUC … UGGAAUUCUCGGGUGCCAA
Construct (chain): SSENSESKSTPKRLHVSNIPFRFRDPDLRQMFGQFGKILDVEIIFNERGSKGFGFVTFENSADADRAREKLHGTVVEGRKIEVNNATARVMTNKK
CCUUUAAUCCCAGCACUUGGGAGGCAGAGGCAGGCGGAUUUCUGAGUUCCAGGCCAGCCUGGUCUACAGAGUGAGUCCAGGACAGCCAGGGCUAUACAGAGAACCCUGUC: 0.199
UGUUUCUUGUCGUGAGGCACCUGCCAUGUCUGUUGCGUUUUCCUCGGCAGCGUGUAGGGCUUCAGCUUCCUGGGUUUUCACCCUUCCUGCAGGCACUGUGGGGUCCUGAG: 0.29
CCCAGUGAAACUCUGAAAUUAUCUGAAAAAUGUAUAUAGUAGCUAAAGGGGGAAUCUUAUAAAAUCCUGUGCAAUAGACAUACAUAGCUGUACUCAGAAGGGCUGUCUUC: 0.334
CAUAGUCGCCCCCAGCUGGGUUGUGCUCCACUGUGACGGUGGCCCGGGGGGAGGAUGCCAGCAGCCUGCCUAUGGCUCCAGCUGUGCUGUGGCCCAGCAGCAUGGCCUGC: 0.268
GCCUCUGGUUACACAUAUUUUAGGCUUUUUUUCCCCCUGAAAUUGUACUUACUGAGGUCCAUGUAUUAAUAAGAGGUCAGUCUGUACAAAAAUCUAAAGAUUUUUUCACU: 0.344
UAUGAUCAGGACCAUAUCCUGCCCAUCUUUGGGCCCUUGGCACUAAAACAAGUGAAUAGAUCCAAGUGAAUAAAGUAAUUUCUCCAUUGACUUUUUUUUUUAACUGCUAG: 0.366
UCAGAACAGGCAGCUGUUGAGCUCGGGGUGUCUUCCCCAAGGCAUGUGGCUCAGCAGCAAGAAAGGCAAGUUGCUCCUGCUGGGGCCCUGGACUCUGCCUUAGCUCCCAC: 1.66
UAACCCUGACACAGGCAGCUGCUGACCGGCCGCCUGUGUCCUGUGUCCGUCCAUUCUGGGCCACAGCCAUGAGAUGCCCCUCCUGCUGUGAAGGUAGCUGUGCGCUGGCU: 0.277
CCCUGCCUCGUUUCCAUCAAGCAUUCCAGUAGCCCCCACAGAGGCCCUCAGCUCAGUUUUUGGCUCUGUUAUGGAGCCUUAGUACCCACCCCGUCUGUGUCCCCCAUGAA: 1.05
UAAAGAGACCUCAGUUUAUAGCGUAACAGACUACACAAUGCACUGAUGUUUUCAUAAUGUUUAAGGGACCCACUGCAAGAAGCUUGCUGCCUCCUUUUAAUUGUAUUCAU: 0.76
CCAGGGUCACCACCUGUCACAGCAAUACCUGGGACCAUGCUCUCCUGGGACUGUGAGGCUCCUUUUGACGUACUUUUGACAUCAGGCAGGUUUGGGAAGAAACAAAGCCA: 1.21
GUGAGUUUCCAAUGUAUUAUCUUAUAUCAAGUAAGAAAUCAAGUAUAUAUCAGCAGAGGCUUACCAAAGUCAUACCUGCUCUCCUCCACUAUUCUCUUCCAGAGUUUUCU: 0.389
